Published values of several laboratories.
A part holds a random share of what one study measured. Positions count from the first letter of the parent shown.
Chain of UniProt P61077 (whole entry, looked up): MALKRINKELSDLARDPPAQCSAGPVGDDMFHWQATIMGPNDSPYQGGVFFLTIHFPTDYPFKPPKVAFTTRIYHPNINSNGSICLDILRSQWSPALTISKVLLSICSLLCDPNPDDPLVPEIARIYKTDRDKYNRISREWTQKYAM

Series 1 — target: CCNB3, cyclin fold, Cln2 fusion (human); technique: yeast growth competition, sequencing; matrix: yeast; notes: weak parent motif; relative to: not given; reading: higher = stronger binding
Starting sequence: SAMHD1 docking peptide (human); ASKSRVQLFKDDP
Variant	normalised enrichment score
ASKSNVQLFKDDP [R5N]	-0.163
ASKSRTQLFKDDP [V6T]	-0.0562
ASKSRVQLFTDDP [K10T]	0.0125
ASKSRVQLFKDKP [D12K]	-0.17
ASKSRVQLFKDTP [D12T]	0.189
ASKVRVQLFKDDP [S4V]	0.86
ASKSRVQLIKDDP [F9I]	0.203
ASKSRVILFKDDP [Q7I]	-0.136

Series 2 — technique: EMSA with sequencing; molecule type: double-stranded DNA, one strand shown; matrix: in vitro; concentration: 10 and 20 nM; relative to: negative control set to 0; reading: higher = stronger binding
Target: Hepatocyte nuclear factor 3-alpha (Foxa1, Mus musculus, UniProt P35582, residues 1-468, full length assumed)
Notes: whole designed probe, mean of two concentrations, ends assumed
Target sequence (chain): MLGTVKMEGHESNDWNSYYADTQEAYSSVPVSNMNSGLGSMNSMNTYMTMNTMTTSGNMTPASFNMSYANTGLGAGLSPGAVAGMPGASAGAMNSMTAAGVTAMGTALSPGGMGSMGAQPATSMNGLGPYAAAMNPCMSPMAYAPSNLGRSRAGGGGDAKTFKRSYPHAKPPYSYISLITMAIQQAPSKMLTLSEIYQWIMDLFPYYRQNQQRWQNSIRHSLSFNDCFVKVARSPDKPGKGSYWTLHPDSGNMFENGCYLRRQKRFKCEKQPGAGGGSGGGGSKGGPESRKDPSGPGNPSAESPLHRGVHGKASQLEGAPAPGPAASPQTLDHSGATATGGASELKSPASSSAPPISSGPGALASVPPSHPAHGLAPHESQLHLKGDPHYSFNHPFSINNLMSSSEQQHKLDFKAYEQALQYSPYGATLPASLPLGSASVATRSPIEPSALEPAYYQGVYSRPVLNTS
Sequence	normalised bound fraction
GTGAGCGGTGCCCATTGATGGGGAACCCTCTGACTCACCCTTCCTAGTGCCACCCAAGTTTCATCTGCACCATTGCTTACACATAATACAAGTACTTAAATTACTTACGCATTTGTTAAAGATTGCTCAGCTGTCTTGGTGCCTTTGTGTCTTTCACTGTGCTTTTAATTAGCTCGGCTGATTCTAAGAGTGGAGGTAAGCCAAGGTTTGAACCAGGTGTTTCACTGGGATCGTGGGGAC	-0.0309 ratio
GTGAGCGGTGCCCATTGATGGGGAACCTGGCCTATCTCCCACCCCTAATGTCCCACACCAGTTCCTGATCTCCTGCCCCACCCCTCCTGCACCCTGCCCCTTCTCAGGTGACTCACTGTGTCATCTTCCTTGAAGGAATGATTTCTGGTTCATGGCCCCAGAGCTGGAGCTTTGGAAGGATAATGGGAAAAGCAGCCAGGGTCCCTGCCCTCAAGAGACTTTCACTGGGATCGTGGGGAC	-0.0835 ratio
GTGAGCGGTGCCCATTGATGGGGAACATCTTCCCCCTCTTCCTTGCCCCACCAGCTCACCTTCCCGGGTTATTTGCAGATAGGAAAATAAATAAAGCCGGGTATCCTTAACCCTCTTCTGGCGCAAACTGCTGTTTGCTCTGGATGAATCATGGTCCTTTGGCGACGCCAGGCTCCGGGAGAGCAAAGCACCGTGTCAGGGCCATGATCCGGGGTGGCCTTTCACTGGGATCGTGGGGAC	0.352 ratio
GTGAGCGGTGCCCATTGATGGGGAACATCTTCCCCCTCTTCCTTGCCCCACCAGCTCACCTTCCCGGGTTATTTGCAGATAGGAAAATAAATAAAGCCGGCATTCGTTAACGCAGTTCACGCGCATACTGCTGTTTGCTCTGCATCTAACATGGTCCTTACGCGACGCCAGGCTCCGGGAGAGCAAAGCACCGTGTCAGGCGCATGATCCGGGCTCGCCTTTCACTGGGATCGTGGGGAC	0.362 ratio
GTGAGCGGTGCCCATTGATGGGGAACATCTTCCCCCTCTTCCTTGCCCCACCAGCTCACCTTCCCGGGTTATTTGCAGAAAAAAGAGCATACAGATGTAGCATTCGTTAACCCTCTTCTGGCGCAAACTGCTGTTTGCTCTGGATGAATCATGGTCCTTTGGCGACGCCAGGCTCCGGGAGAGCAAAGCACCGTGTCAGGGCCATGATCCGGGGTGGCCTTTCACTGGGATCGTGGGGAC	0.144 ratio

Other studies, line by line
HLA class I histocompatibility antigen, A alpha chain allele A*25:01: HLA class I histocompatibility antigen, A alpha chain, allele A*25:01 (Homo sapiens, UniProt P04439)
B1: RNF135 RING domain (UniProt Q8IUD6); chain PVWLAEDDLGCIICQGLLDWPATLPCGHSFCRHCLEALWGARDARRWACPTCRQGAAQQPHLR
Molecule	target	assay	test system	conditions	how to read	quantity	result
LEMNDAPTA	HLA class I histocompatibility antigen, A alpha chain allele A*25:01	peptide-MHC binding	peptide	concentration not given		binding	inactive
B1 (RNF135 RING domain)	UBE2D3 UBC core domain (UniProt P61077)	yeast two-hybrid	yeast	mostly zero background	relative to: not given, higher = stronger interaction	lacZ reporter activity	0
YGSWFGLIY	HLA class I histocompatibility antigen, A alpha chain allele A*25:01	peptide-MHC binding	peptide	concentration not given		binding	inactive

Some of these lines once more (other studies, line by line):
Molecule	target	assay	test system	conditions	how to read	quantity	result
LEMNDAPTA	HLA class I histocompatibility antigen, A alpha chain allele A*25:01	peptide-MHC binding	peptide	concentration not given		binding	inactive
B1 (RNF135 RING domain)	UBE2D3 UBC core domain (UniProt P61077)	yeast two-hybrid	yeast	mostly zero background	relative to: not given, higher = stronger interaction	lacZ reporter activity	0
YGSWFGLIY	HLA class I histocompatibility antigen, A alpha chain allele A*25:01	peptide-MHC binding	peptide	concentration not given		binding	inactive
